Assay results gathered from unrelated publications.
Parts stem from different laboratories: compare values within a part only.

Study 1
Target: Histone acetyltransferase KAT6A, both winged helices, GST fusion (KAT6A, Homo sapiens, UniProt Q92794, residues 1-181)
Method: protein binding microarray
Form: double-stranded DNA, one strand shown
Sample: in vitro
Tested at: not given
Setting: 8-mer, flanks averaged, mean of 2 arrays, mostly near background
Reference: not given
Reading: higher = stronger binding
Construct (chain): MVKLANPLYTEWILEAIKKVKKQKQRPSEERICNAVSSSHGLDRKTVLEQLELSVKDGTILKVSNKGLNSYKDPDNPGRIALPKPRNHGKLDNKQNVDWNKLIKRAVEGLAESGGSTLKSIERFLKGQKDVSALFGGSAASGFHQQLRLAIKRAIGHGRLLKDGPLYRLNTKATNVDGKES
| Sequence | E-score |
| --- | --- |
| CAAGGGGA | -0.292 |
| AGAAGTGA | -0.0997 |
| CACTCAGA | -0.12 |
| AATGTTAT | -0.136 |
| TAATCGGA | 0.0304 |
| CGATCACA | -0.0683 |
| ACTAGACC | -0.0688 |
| CGTGCTAG | 0.0434 |
| CTCAACCC | -0.172 |
| AATTAGCT | -0.142 |
| GCGGAACA | 0.224 |
| GACAAGGA | -0.125 |
| CACAGTTA | 0.0172 |
| CGGATGGA | 0.123 |
| ACTCGTTC | -0.124 |
| CTAGTTCA | 0.0226 |
| AGCGATTC | 0.187 |
| TGAGCCAA | -0.173 |
| CAGGTCTA | -0.178 |
| CACTTCGA | -0.108 |
| ACTAGTGA | -0.165 |
| TAACGTAA | -0.0867 |
| CTAGTACC | -0.0105 |

Study 2
Target: Fragile X messenger ribonucleoprotein 1, C-terminal low-complexity region (Fmr1, Mus musculus, UniProt P35922)
Method: RNA Bind-n-Seq
Form: RNA
Sample: in vitro
Tested at: 200 nM
Setting: whole 134-nt RNA, ends assumed
Together with: 150 mM KCl
Reference: input library
Reading: higher = stronger binding
| Sequence | log2 enrichment |
| --- | --- |
| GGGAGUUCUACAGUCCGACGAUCUCCUGUGCUACACAUCGUAUGUACCGAAUCGGAAAAAAGGGGAAAAAAGGGAAAAAAGGGAAAGUAUUAUGUUACGCCGUUCGGAUCUGCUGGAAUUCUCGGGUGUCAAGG | -0.292 |
| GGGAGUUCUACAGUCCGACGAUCUGGCCCUGGUGGCAUGCGGGGGGGAAGAGGUGGCCUCAUGGAUCGUGGUGGUCCCGGUGGAAUGUUCAGAGGUGGCCGUGGUGGAGACAGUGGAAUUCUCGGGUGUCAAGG | 0.348 |
| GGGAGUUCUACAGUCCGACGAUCAAGUCCUGUGCUACACAUCGUAUGUACCGAAUCGGGGAGGGGAAAAAGGGGUGGGGAAAGUAUUAUGUUACGCCGUUCGGAUCUGCACUUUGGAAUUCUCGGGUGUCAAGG | 1.03 |
| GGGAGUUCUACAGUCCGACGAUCUGGCCCUGGUGGCAUGCGGGGAGGAAGAGGUUGCCUCAUGGAUCGUGGUGGUCCCGGUGGAAUGUUCAGAGGUGGCCGUGGUGGAGACAGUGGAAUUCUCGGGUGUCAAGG | -0.204 |
| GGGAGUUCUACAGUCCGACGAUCAAGUCCUGUGCUACACAUCGUAUGUACCGAAUCGGGAAAGGGAAAGGGAAAAAGGGAAAGUAUUAUGUUACGCCGUUCGGAUCUGCACUUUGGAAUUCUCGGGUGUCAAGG | -0.0271 |
| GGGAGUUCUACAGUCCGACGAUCUCCUCAAGUCCUGUGCUACACAUCGUAUGUACCGAAUCGGUGGUGGGUGGGAAAGUAUUAUGUUACGCCGUUCGGAUCUGCACUUCCAGCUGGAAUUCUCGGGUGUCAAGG | 0.169 |
| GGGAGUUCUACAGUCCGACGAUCUCCUGUGCUACACAUCGUAUGUACCGAAUCGGGUUUGGGUUUUUUUGGGUUUUUUUGGGAAAGUAUUAUGUUACGCCGUUCGGAUCUGCAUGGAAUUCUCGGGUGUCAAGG | 0.329 |
| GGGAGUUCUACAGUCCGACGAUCGCAGGAAGUAAAAACAAAUGGAAAUGCUUCGGAUAGUGGCAGGGGUGGGGGUUGCUAAGGAAAGGGUGGGAUGGGAGUGGGUAGAGAGUUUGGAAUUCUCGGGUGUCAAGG | 0.211 |
| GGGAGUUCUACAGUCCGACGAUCGUCCUGUGCUACACAUCGUAUGUACCGAAUCGGUUUUUUUGGUUUUUGGAAAAAAAGGAAAGUAUUAUGUUACGCCGUUCGGAUCUGCACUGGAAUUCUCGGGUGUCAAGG | -0.834 |

Study 3
Target: RNA binding protein fox-1 homolog 2, RRM domain, GST-SBP tag (RBFOX2, Homo sapiens, UniProt O43251-10, residues 100-194)
Method: RNA Bind-n-Seq
Form: RNA
Sample: in vitro
Tested at: 365 nM
Setting: natural RNA segment, single round, ends assumed
Reference: no-protein control
Reading: higher = stronger binding
Construct (chain): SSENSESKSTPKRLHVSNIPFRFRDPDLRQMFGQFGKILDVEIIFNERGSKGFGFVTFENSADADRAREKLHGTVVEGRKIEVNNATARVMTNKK
| Sequence | RBNS enrichment (R) |
| --- | --- |
| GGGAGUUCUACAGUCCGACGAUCUUGAAUUUCGUAUUCUUUCAUUCCACUGUGUAAAGUGCUAGACAUUUUCCAAUUUAAAAUUUUGCUUUUUAUCCUGGCACUGGCAAAAAGAACUGUGAAAGUGAAAUUUUUGGAAUUCUCGGGUGCCAA | 0.548 |
| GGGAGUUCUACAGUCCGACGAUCGGUACAAGUGGCAACCUGCUUCCAUGGCCGUGUAGAAGCAUGGUGCCCUGGCUUCUCUGAGGAAGCUGGGGUUCAUGACAAUGGCAGAUGUAAAGUUAUUCUUGAAGUCAUGGAAUUCUCGGGUGCCAA | 0.744 |
| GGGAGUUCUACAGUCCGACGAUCUGGUUUUCUGCCUGUGUGCUGCCCAAGGCUCAAUCAGUGCUAAGCUUCAUAGAUGGCAUAUACCCUUCACCUUCAACUAACAGGAUACUCACCCCAAAGGCGCAGUCAGGUGGAAUUCUCGGGUGCCAA | 0.353 |
| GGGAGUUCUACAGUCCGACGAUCAGAGACUUGAGAGGAACUGUCCCUCCUCCCUCAUGCUUCUCCUCAUCCCUUCAAGCUGGUUGAAGAGAGUAGGCAGGGGCGGGGCCCCGAGGUGCUUCAACCCCACCUACUGGAAUUCUCGGGUGCCAA | 0.405 |
| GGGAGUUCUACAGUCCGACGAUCUGGCCUGAACCUACAACUGCCAAAGAACCCAGCAACAAACCUCCCAGCUUGGAGCUUUAGUUUUUUUCUUUGUUUUUCUUGCUGCCCUCCUCCCUGCCCCCCUUUUCUUAUGGAAUUCUCGGGUGCCAA | 0.609 |
| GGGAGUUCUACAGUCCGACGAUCUUGUGCAGGAAACCAGCCAUUUAAUUGUUCUAGAGUUUUAGCAUUUAAAAAUCGUAUGAAAGUCUACAUCAGCUGAAUUGUCCUAGCUUGAUAAGCACUUGGAGGGGGACUGGAAUUCUCGGGUGCCAA | 0.988 |
| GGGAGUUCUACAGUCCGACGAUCAGGGCAAAGAGCAGGCACCACUCAGAACGUGGUGAGUACAGCUCAGCUCAGCACUCAGUCAGUGGUAACUUGUGCCCAGCCCUGUGCUAGGCGCUGACAUUAACAGGAGCUGGAAUUCUCGGGUGCCAA | 0.284 |
| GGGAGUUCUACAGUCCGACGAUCCUGAGGAAGUGUGGCUUGCUAGUCUGUUACGUUAACAUGCUUUUCUAAAAUUGCUUCACGUGUUAAUUCAUUUACUCCUGCAUUCAUUGACUGUUUUUGUUCUUUUCCAUUGGAAUUCUCGGGUGCCAA | 0.577 |

Study 4
Target: Interferon regulatory factor 7, full length, phosphomimetic (IRF7, Homo sapiens, UniProt Q92985, residues 1-503, S101K/S471D/S472D/S475D/S476D/S477D/S483D/S484D/S487D)
Sequence of UniProt Q92985 (whole entry, unmodified, looked up): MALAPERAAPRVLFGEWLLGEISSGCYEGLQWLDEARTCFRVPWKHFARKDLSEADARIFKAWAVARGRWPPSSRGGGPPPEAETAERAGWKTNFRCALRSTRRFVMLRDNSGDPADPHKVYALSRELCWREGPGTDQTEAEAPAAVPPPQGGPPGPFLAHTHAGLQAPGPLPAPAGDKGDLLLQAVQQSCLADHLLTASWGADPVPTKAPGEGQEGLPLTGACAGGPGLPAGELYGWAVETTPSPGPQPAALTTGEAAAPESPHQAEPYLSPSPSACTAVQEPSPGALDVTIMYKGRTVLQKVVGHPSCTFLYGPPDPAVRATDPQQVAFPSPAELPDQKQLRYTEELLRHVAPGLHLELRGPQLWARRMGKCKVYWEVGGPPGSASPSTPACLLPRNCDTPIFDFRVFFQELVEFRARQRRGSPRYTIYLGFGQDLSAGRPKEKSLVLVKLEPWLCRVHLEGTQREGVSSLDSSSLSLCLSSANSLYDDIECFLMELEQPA
Method: protein-binding microarray
Form: double-stranded DNA, one strand shown
Sample: in vitro
Tested at: 250 nM
Setting: 60-bp whole probe
Together with: salmon DNA 0.4 mg/ml
Reference: random background probes
Reading: higher = stronger binding
Constant ends, left off below: GCCTAGCAC … GTCTTGATTCGCTTGACGCTGCTG
| Sequence | log fluorescence [z-score] |
| --- | --- |
| GACGCTATCGACTATCGGGACGTGCTA | -0.417 |
| TTAGGTATCGACTTTCTGTTAGTGCTA | 1.66 |
| TTAGGTTCTCTTTTCCTTTAGTGCTAG | 2.86 |
| TTAGGACTGGGGTATCGGTTCGTGCTA | 1.47 |
| GACGGAGTGGACTTTCGGGACGTGCTA | -0.832 |
| TTAGGTTTCGGTATCGTTTAGTGCTAG | 11.4 |
| ATGAGTCTCAAAATTAGAGAGTGCTAG | -0.0385 |
| GACGATATCGGGTTTGGAGACGTGCTA | -0.432 |
| GACGGTATTGGGTATCGGGACGTGCTA | 0.0162 |
| AGTGTTACCCCTCATCAACCAGTGCTA | -0.195 |
| AGTTCTAAGGATTTCAGTTTGTGCTAG | 0.648 |
| GATGGTCTCGGACTGGGGACGTGCTAG | -0.00361 |
| CTCCTGCAGCTGCCCTCCTGGTGCTAG | -0.52 |
| CAGAGCCTCAGGCCTCACACAGTGCTA | -0.79 |
| TCATAAAACAACTTTCAAACTGTGCTA | -0.037 |
| TTTTTTTTTTTTCTGATCCAGTGCTAG | 0.998 |
| TAAGATTCCAGTTTCGATTAGTGCTAG | 10.5 |
| GACGGTTTCCATATCCTGACGTGCTAG | 4.91 |
| TGGAGAGTAGCTTTCTGAGGGTGCTAG | -1.09 |

Some of these lines once more (study 4):
| Sequence | log fluorescence [z-score] |
| --- | --- |
| CTCCTGCAGCTGCCCTCCTGGTGCTAG | -0.52 |
| CAGAGCCTCAGGCCTCACACAGTGCTA | -0.79 |
| TCATAAAACAACTTTCAAACTGTGCTA | -0.037 |
| TTTTTTTTTTTTCTGATCCAGTGCTAG | 0.998 |
| TAAGATTCCAGTTTCGATTAGTGCTAG | 10.5 |
| GACGGTTTCCATATCCTGACGTGCTAG | 4.91 |
